Published values pooled from the literature.
A part holds a random share of what one study measured. Changes are numbered by the printed parent chain.

Study 1
Target: CCNE1, cyclin fold, Cln2 fusion (human)
Method: yeast growth competition, sequencing
Sample: yeast
Notes: strong parent motif
Relative to: not given
Direction: higher = stronger binding
Parent: CDKN1B docking peptide (human); PSACRNLFGPVDH
| Substitution | normalised enrichment score |
| --- | --- |
| PSACRNLFGPVDA [H13A] | 2.73 |
| PSACRNLCGPVDH [F8C] | -0.365 |
| PSACRNLFGPVPH [D12P] | 2.73 |
| SSACRNLFGPVDH [P1S] | 3.02 |
| PSACRNLFGPNDH [V11N] | 2.63 |
| PSACRNLIGPVDH [F8I] | 0.508 |
| PQACRNLFGPVDH [S2Q] | 1.81 |
| PSACRNEFGPVDH [L7E] | 0.134 |
| PSACRNLFGPPDH [V11P] | 2.95 |
| PSACRNLFAPVDH [G9A] | 1.7 |
| PSACRNLFGPVAH [D12A] | 3.17 |
| FSACRNLFGPVDH [P1F] | 3.95 |
| PSACRNLAGPVDH [F8A] | 0.291 |
| PSACRHLFGPVDH [N6H] | 0.447 |
| PSACRPLFGPVDH [N6P] | 0.0877 |
| PSACRNLFGPADH [V11A] | 2.67 |
| PSACYNLFGPVDH [R5Y] | 0.922 |
| PSACRNHFGPVDH [L7H] | 0.0118 |
| PSARRNLFGPVDH [C4R] | 3.07 |

Study 2
Target: Ras GTPase-activating protein-binding protein 1, C-terminal RGG region (G3BP1, Homo sapiens, UniProt Q13283)
UniProt Q13283, sequence (whole entry, looked up): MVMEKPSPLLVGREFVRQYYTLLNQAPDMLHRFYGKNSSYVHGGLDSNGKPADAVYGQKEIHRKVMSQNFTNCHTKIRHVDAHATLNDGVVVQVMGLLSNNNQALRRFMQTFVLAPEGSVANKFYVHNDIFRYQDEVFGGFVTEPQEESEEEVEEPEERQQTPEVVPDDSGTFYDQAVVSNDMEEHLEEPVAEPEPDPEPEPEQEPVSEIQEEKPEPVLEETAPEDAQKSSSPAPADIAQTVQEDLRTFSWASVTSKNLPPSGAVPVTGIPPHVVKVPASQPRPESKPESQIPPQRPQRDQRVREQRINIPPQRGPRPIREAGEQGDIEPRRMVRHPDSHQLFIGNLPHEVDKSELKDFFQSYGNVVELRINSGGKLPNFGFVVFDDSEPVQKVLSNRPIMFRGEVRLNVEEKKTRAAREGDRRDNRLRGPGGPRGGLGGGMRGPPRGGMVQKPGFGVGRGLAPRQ
Method: RNA Bind-n-Seq
Form: RNA
Sample: in vitro
Concentration: 1 µM
Notes: whole 134-nt RNA, ends assumed
Together with: 150 mM KCl
Relative to: input library
Direction: higher = stronger binding
All sequences stand within: GGGAGUUCUACAGUCCGACGAUC … UGGAAUUCUCGGGUGUCAAGG
| Strand | log2 enrichment |
| --- | --- |
| CACAGACAACACGCACCCACACAGACACAGAGGGAAGGGGUUGGGAUGGGGACAGGGUGCACAGCAGGGCGGGGUAGGACCUCAGCCCCU | -1.04 |
| AAGUCCUGUGCUACACAUCGUAUGUACCGAAUCAAACCCAAACCCCCAAACCCAAAAAAGUAUUAUGUUACGCCGUUCGGAUCUGCACUU | -0.955 |
| ACCAUGCCGGUGGGCAUCUUUGGGAAGUGGGGCAAGGGGGGGAUAGGGAGGGGGGUAACACUUUGGGAACAGGUGGUCCCAGGUCGUUUC | -0.884 |
| UGUCAUGGAUUCAAGUUAUUAAAAGCAUAAGUUUGGAAGACAGGCUUGCCGAAAUUGAGGACAUGAUUAAAAUUGCAGUGAAGUUUGAAA | -2.57 |
| CUCAAGUCCUGUGCUACACAUCGUAUGUACCGAAUCGGUGGAGGAAAAAAAGGAAAGUAUUAUGUUACGCCGUUCGGAUCUGCACUUCCA | -1.33 |
| CCUCAAGUCCUGUGCUACACAUCGUAUGUACCGAAUCGGUGGGUGGGGUGGGAAAGUAUUAUGUUACGCCGUUCGGAUCUGCACUUCCAG | 0.971 |
| AGUCCUGUGCUACACAUCGUAUGUACCGAAUCGGAAAAAAAGGUUUGGUUUUUUUGGAAAGUAUUAUGUUACGCCGUUCGGAUCUGCACU | -2.11 |
| ACCAUGCAGGUGGGCAUCUUUGGGAAGUGGGGCUAGGGGGGGAUAGGGAGGGGGGUAACACUUUGGGAACAGGUGGUCCCAGGUCGUUUC | -0.673 |
| AAUGUGUCCUCCCUGUCCAAAUUGGGAAUGACUUAAUGUCAAUUUGUUUGUUGGUUGUUUUAAUAAUACUUCCUUAUGUAGCCAUUAAGA | -0.762 |

Study 3
Target: RING finger protein unkempt homolog, zinc fingers 1-6, GST-SBP tag (UNK, Homo sapiens, UniProt Q9C0B0, residues 30-357)
Method: RNA Bind-n-Seq
Form: RNA
Sample: in vitro
Concentration: not given
Notes: RNA with constant flanks, human and mouse sites, ends assumed
Relative to: input RNA pool
Direction: higher = stronger binding
All sequences stand within: GGGAGUUCUACAGUCCGACGAUC … CAACAGAGGAUUGAGCAUCA
Residues (chain): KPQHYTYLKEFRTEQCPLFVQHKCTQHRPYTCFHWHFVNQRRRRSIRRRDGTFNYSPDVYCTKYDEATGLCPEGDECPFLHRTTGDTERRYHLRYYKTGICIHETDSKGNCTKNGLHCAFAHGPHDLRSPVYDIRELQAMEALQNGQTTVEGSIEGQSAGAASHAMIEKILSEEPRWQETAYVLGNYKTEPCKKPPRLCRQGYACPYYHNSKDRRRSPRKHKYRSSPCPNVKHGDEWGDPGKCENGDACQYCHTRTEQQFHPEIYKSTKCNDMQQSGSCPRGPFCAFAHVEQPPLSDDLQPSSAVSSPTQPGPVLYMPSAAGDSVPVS
| Strand | bound/input enrichment [ratio] |
| --- | --- |
| UUAGCAUGCUGUAUGCCUCCCUCGUACAGUACAUCAGUUUACACUCUGAAGGCGUUCUAGAAUAGUGUUGCCUAGUUUAAGGAAAGGGUAUUACAGUGUUCUUCACAACUUAAGAAUUUU | 0.233 |
| AAUAUGAUAACACAGUAUUGGCCUGAUCGAGAAACAGCACCAGGGGAUAUAUCCCCUUAUACUAUUCCAGAAGAAGAUCGCCAUUGUAUUCGAGAAAAUAUUGUAGAAGCCAUUAUCCAU | 0.191 |
| CCCUGUGUGUAUAAUGUAUCUCCUUUCAGAACAGGAAUGUGCCUCCUAAUGUUUACUGUUACCCUGCUGUCUCUGUAUGUCCAGUCGGUGGAACACUGUAAUGACUUGAGAAUAAACUGC | 0.264 |
| AAGCCAUUCCCAGAGCAUCUCUACCAGCGUGUCAGGAUCAGAAGCAAGGUUUUCGGGUUGCAUAGUGUUUCCAGGGGCAUGUACGAUGGGCCUGUGUACGAGGUGCCAGCUACACCCAAA | 0.14 |
| AACCGGAAGGGCCUGAUAGCCGCCAUCUGUGCAGGUCCUACUGCUCUGUUGGCUCAUGAAAUAGGUUUUGGAAGUAAAGUUACAACACACCCUCUUGCUAAAGACAAAAUGAUGAAUGGA | 0.44 |
| CCUGCAAGUUUGCAGAGAGGUUUACAUCGCCAAGCUUUGGCCUUUCAUUUCUGCAAAGCCCAGGACUCUGAUACUUUGUGUGUUGGAGGGUUUAUUAGAGGUCUAGUAGCCCAGAUCUGC | 0.087 |
| GGAAGACCUUUCAACUCCAUUCAGAAGACAACAUUUAGUAAGGAGGAUGGCGGAGGUUACUAGUAAUUUUCAGAUGUCUUGGGCUUUUUCUGCCAACAAAACCCAAAAUCAAAUUAGAGU | 4.67 |
| GGAGACUAGUUUCCGGCCUCAUUUUAAGGUUUCAUUUAUAAAUGUUCCUACUUAAAUCCUCCUUAGCAGACAAUUGGCUGGUAAAAUCAUUUUCUGUUAAUGAAGACAGUGGUUUUUAAG | 0.467 |

Study 4
Target: RNA binding protein fox-1 homolog 2, RRM domain, GST-SBP tag (RBFOX2, Homo sapiens, UniProt O43251-10, residues 100-194)
Method: RNA Bind-n-Seq
Form: RNA
Sample: in vitro
Concentration: 365 nM
Notes: natural RNA segment, single round, ends assumed
Relative to: no-protein control
Direction: higher = stronger binding
All sequences stand within: GGGAGUUCUACAGUCCGACGAUC … UGGAAUUCUCGGGUGCCAA
Target sequence (chain): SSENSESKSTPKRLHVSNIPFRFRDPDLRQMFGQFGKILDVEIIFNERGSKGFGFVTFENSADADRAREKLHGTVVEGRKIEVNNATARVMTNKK
| Strand | RBNS enrichment (R) |
| --- | --- |
| UUAUUGAUAACUGUCAUCAUGAAAUUAUCUCUCAAUAAUAAGAUAAAUAAACUAGCAUAUGAAUCAUUUUGUCUUUGCAUUUUUAAUGAGAAACUAUUAAUAAUCCUGAA | 2.21 |
| AUUGGUGGGCAGGGGGUUUGCUUAUGAGUUUUCUCUGGAAACCGAUUUUACUCCUGGAUGUAUUGAAUGCCCCUUGAGCUUUAUGAGAUACGAGUCCACAUGGAUAAAAU | 0.628 |
| GGGGAGAGGGUUUAAAUGAGGGUUAUGGGGCGAAAUAAAACCAAGUAUAAGUGAUUCUAUCUUGGUCCCACCAAGAGUUUGCCCGAUCUCCACACAUCACCUGUUGUCUC | 0.305 |
| AUCCCUCAGGGCAUAGAGUCCUUGCCACCACCUGUCCCCAGAUGCCAGUGUGUGGCACCCCUCCCCCCCCAACUUCCAUUCCUGAUCUUAGGCAAGUUCUUGGAGUCUGC | 0.396 |
| UUCAGGUUGGUGGAAAAUGUCAGUGGUGUAGUGUUGAGGACCUCACUAUUUUUUUUUUUAAAUCAUUUAUCCUAGAGAAGGACUCUGAUCCUUGCUUUCCUAGGUAAAUU | 1 |
| GUCCCCAUGAAAUAAGAUGAAACUGAUUCCAUGCACUAGUACAUGUAGGCUUCUCCCUUGUGCAAAGCUUAGCAAUUUGUAGGAAACUUUGAUCUUUUUGUCCAAGAAAA | 0.389 |
| ACAUUUUUCAUGUUAAAGAGCCGUGUCUCCCGCCAGCACUCCUCACCCCGGUAUGAAUGUGUUUCCUCCACAUUGUAUAUCCUUCCACCCUCUGGCUGCCUAGAUCAGUA | 0.568 |
| CAUGGUCCCUUGUUAGUGUUGUGCCAAAGGCCUUGGGUCAGUUCUCUCAGCUUCCAUAUGGAAGUGAGGAAGGGACCUGUGCCUAUUAGCCCUCUUGAUUCUCACCUGAU | 0.452 |

Excerpt of the above (study 1):
| Substitution | normalised enrichment score |
| --- | --- |
| PSACRNLFGPPDH [V11P] | 2.95 |
| PSACRNLFAPVDH [G9A] | 1.7 |
| PSACRNLFGPVAH [D12A] | 3.17 |
| FSACRNLFGPVDH [P1F] | 3.95 |
| PSACRNLAGPVDH [F8A] | 0.291 |
